Published values gathered from unrelated publications.
Numbered parts are unrelated; each lists some results of a single study. Changes are numbered by the printed parent chain.

Series 1
Target: Interferon regulatory factor 5, full length, phosphomimetic (IRF5, Homo sapiens, UniProt Q13568-2, residues 1-514, K96S/S451D/S453D/S456D/S462D)
Method: protein-binding microarray
Molecule type: double-stranded DNA, one strand shown
Matrix: in vitro
Concentration: 250 nM
Notes: 60-bp whole probe
Together with: salmon DNA 0.4 mg/ml
Baseline: random background probes
Direction: higher = stronger binding
All sequences stand within: GCCTAGCAC … GTCTTGATTCGCTTGACGCTGCTG
| Oligonucleotide | log fluorescence [z-score] |
| --- | --- |
| TTAGGTATCTTTTTCCTTTAGTGCTAG | 0.603 |
| TCAGCTTTCTCTTTCATACTGTGCTAG | 4.89 |
| TTAGGTTTCCTTTTCCCTTAGTGCTAG | 1.62 |
| TCACATTTCCAATTACCACTGTGCTAG | 0.821 |
| GACGGAGTGGGGTTTCGGGACGTGCTA | 1.25 |
| GACGATCTCAGTTTGGAGACGTGCTAG | -0.23 |
| CTCGTGGTCCTGCCCTGCCTGTGCTAG | -0.654 |
| TTAGGACTGGTCTTTCGGTTAGTGCTA | 7.31 |
| TCAAAAATGATTTTTTTACTGTGCTAG | 0.609 |
| TCCATTTTCTAAATTCCCTAGTGCTAG | 1.09 |
| GACGATCTCAGTATCGAGGCGTGCTAG | 1.08 |
| CATTGCCTGTTTTTCCCCTGGTGCTAG | 0.499 |
| GACGGACTGGGGTCTGGGGACGTGCTA | -0.557 |
| TCAGCTTTCTTTAACTCACTGTGCTAG | 1.12 |
| GACTGTTTCCTTTTCCTGACGTGCTAG | 1.45 |
| GGTGTAAGGAACTGAAGTGAGTGCTAG | -0.2 |
| TTAGGTATCCTAATGCTTTAGTGCTAG | 0.102 |
| TTAGAACTGAGTCTCGATTGGTGCTAG | 0.612 |
| GACGGTTTCGGGTTTCTGGACGTGCTA | 7.26 |

Series 2
Target: Ras GTPase-activating protein-binding protein 1, full length (G3BP1, Homo sapiens, UniProt Q13283)
Chain of UniProt Q13283 (whole entry, looked up): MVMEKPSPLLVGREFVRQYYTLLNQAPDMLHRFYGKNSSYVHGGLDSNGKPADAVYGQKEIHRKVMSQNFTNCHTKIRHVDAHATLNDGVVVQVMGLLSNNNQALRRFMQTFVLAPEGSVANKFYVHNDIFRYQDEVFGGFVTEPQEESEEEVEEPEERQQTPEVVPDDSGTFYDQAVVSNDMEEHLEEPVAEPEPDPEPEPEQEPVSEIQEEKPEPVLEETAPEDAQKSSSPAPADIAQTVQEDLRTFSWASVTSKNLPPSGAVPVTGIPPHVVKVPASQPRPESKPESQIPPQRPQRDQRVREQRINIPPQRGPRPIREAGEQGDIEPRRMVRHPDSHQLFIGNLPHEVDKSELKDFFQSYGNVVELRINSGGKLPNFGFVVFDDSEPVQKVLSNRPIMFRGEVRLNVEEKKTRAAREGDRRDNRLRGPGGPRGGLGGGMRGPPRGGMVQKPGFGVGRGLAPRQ
Method: RNA Bind-n-Seq
Molecule type: RNA
Matrix: in vitro
Concentration: 200 nM
Notes: whole 134-nt RNA, ends assumed
Together with: 150 mM KCl
Baseline: input library
Direction: higher = stronger binding
| Oligonucleotide | log2 enrichment |
| --- | --- |
| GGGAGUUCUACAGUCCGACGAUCUGUGCUACACAUCGUAUGUACCGAAUCGGGGAAAAAAAGGGGUUUUUUUGGGGUUUUUGGGGAAAGUAUUAUGUUACGCCGUUCGGAUCUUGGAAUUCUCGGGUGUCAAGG | -0.174 |
| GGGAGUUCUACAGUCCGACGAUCCCUCAAGUCCUGUGCUACACAUCGUAUGUACCGAAUCGGGGCGGGCGGGCGGAAAGUAUUAUGUUACGCCGUUCGGAUCUGCACUUCCAGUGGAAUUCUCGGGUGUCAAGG | 1.43 |
| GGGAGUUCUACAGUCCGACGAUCUGUGCUACACAUCGUAUGUACCGAAUCGGGGUUUUUUUGGGGUUUUUUUGGGUUUUUUUGGGGAAAGUAUUAUGUUACGCCGUUCGGAUCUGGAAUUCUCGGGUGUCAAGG | -0.592 |
| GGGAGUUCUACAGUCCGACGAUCUUAGAUGAGUGACCGAGGAGGUGGCGUUCCUUUGAGGAAAAUUGACAGACUUUUCAACUACAUGUAUUCAACUGCACCAAGACCUCGUGUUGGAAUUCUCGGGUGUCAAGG | -0.518 |
| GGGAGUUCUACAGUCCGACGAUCCCUCAAGUCCUGUGCUACACAUCGUAUGUACCGAAUCGGGGAGGGAGGGAGGGAAAGUAUUAUGUUACGCCGUUCGGAUCUGCACUUCCAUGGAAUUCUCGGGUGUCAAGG | 1.14 |
| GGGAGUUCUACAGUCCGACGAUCUCCUGUGCUACACAUCGUAUGUACCGAAUCGGGGCCCCCGGGGCCCCCGGCCCCCGGGGAAAGUAUUAUGUUACGCCGUUCGGAUCUGCAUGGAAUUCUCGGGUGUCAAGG | -0.33 |
| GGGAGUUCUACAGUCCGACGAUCAAGUCCUGUGCUACACAUCGUAUGUACCGAAUCGGGGAAAGGGGAAAGGGGAAAGGAAAGUAUUAUGUUACGCCGUUCGGAUCUGCACUUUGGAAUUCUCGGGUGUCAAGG | -0.107 |
| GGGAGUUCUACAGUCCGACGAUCUCCUGUGCUACACAUCGUAUGUACCGAAUCGGGGUUUGGGGAAAGGGGAAAAAAAGGGGAAAGUAUUAUGUUACGCCGUUCGGAUCUGCAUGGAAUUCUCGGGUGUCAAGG | 0.585 |
| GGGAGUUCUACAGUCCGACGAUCUCAAGUCCUGUGCUACACAUCGUAUGUACCGAAUCGGUUUUUUUGGUUUGGAGGAAAGUAUUAUGUUACGCCGUUCGGAUCUGCACUUCCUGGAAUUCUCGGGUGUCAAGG | -0.998 |

Series 3
Target: CCNA1, cyclin fold, Cln2 fusion (human)
Method: yeast growth competition, sequencing
Matrix: yeast
Notes: strong parent motif
Baseline: not given
Direction: higher = stronger binding
Parent: RBL2 docking peptide (human); STTRRRLFVENDS
| Change | normalised enrichment score |
| --- | --- |
| STTMRRLFVENDS [R4M] | 0.0975 |
| PTTRRRLFVENDS [S1P] | 0.479 |
| STTRRRLFVEQDS [N11Q] | 0.53 |
| STTRRLLFVENDS [R6L] | 0.628 |
| STGRRRLFVENDS [T3G] | 0.562 |
| KTTRRRLFVENDS [S1K] | 0.777 |
| STTRKRLFVENDS [R5K] | 0.655 |
| STTRIRLFVENDS [R5I] | 0.24 |
| STTRRHLFVENDS [R6H] | 0.239 |
| STTTRRLFVENDS [R4T] | 0.116 |
| STTRLRLFVENDS [R5L] | 0.228 |
| STQRRRLFVENDS [T3Q] | 0.17 |
| STTRNRLFVENDS [R5N] | 0.306 |
| STKRRRLFVENDS [T3K] | 0.0807 |
| STTKRRLFVENDS [R4K] | 0.366 |
| STTRRRWFVENDS [L7W] | 0.191 |
| STTRRYLFVENDS [R6Y] | 0.131 |
| STTRRFLFVENDS [R6F] | 0.726 |
| TTTRRRLFVENDS [S1T] | 0.807 |
| STTRRRLFVENDK [S13K] | 0.715 |
| STTRRRLFVENQS [D12Q] | 0.473 |
| STTRARAFVENDS [R5A L7A] | 0.0521 |
| STTRRRLNVENDS [F8N] | 0.0801 |
| STTRRRFFVENDS [L7F] | 0.134 |

Series 4
Target: ABI1, truncated, D143A, DHFR fusion (Arabidopsis thaliana)
Method: DHFR PCA, deep sequencing
Matrix: yeast
Notes: methotrexate growth selection, single substitutions
Together with: (+)-ABA 0.032 µM
Baseline: wild-type fitted maximum
Direction: higher = stronger binding
Parent: PYL1, truncated, DHFR fusion (Arabidopsis thaliana); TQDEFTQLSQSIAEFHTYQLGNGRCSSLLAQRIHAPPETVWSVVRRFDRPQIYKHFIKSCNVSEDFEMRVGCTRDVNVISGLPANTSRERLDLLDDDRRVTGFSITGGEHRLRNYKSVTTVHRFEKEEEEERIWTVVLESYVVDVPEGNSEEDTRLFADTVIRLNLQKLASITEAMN; partner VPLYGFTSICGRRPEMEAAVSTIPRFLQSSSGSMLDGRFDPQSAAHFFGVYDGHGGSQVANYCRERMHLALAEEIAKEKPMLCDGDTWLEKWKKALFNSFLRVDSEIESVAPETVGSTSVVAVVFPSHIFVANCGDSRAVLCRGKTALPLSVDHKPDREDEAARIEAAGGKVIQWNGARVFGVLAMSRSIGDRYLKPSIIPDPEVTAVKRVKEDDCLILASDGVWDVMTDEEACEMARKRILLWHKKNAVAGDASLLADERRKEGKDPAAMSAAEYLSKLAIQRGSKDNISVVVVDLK
| Change | relative binding score [%] |
| --- | --- |
| F56S | -1.87 |
| P83A | 20.6 |
| Q31C | 0.952 |
| K168H | 24.3 |
| F56K | -4.06 |
| R24Q | 58 |
| V43I | 38.6 |
| R123I | 2.7 |
| Q167H | 7.27 |
| V121H | -13.3 |
| L82H | 27.2 |
| G108Q | -0.828 |
| V121I | 4.34 |
| T106R | 3.75 |
| I133K | 8.93 |
